Results pooled from the literature.
A part holds a random share of what one study measured.

Sample 1 — method: protein-binding microarray; molecule type: double-stranded DNA, one strand shown; matrix: in vitro; concentration: 250 nM; setting: 60-bp whole probe; with: salmon DNA 0.4 mg/ml; relative to: random background probes; direction: higher = stronger binding; endpoint: log fluorescence; constant ends, left off below: GCCTAGCAC … GTCTTGATTCGCTTGACGCTGCTG
Target: Interferon regulatory factor 5, full length, phosphomimetic (IRF5, Homo sapiens, UniProt Q13568-2, residues 1-514, K96S/S451D/S453D/S456D/S462D)
TTAGAGCTCCTCCTTCTCTAAGTGCTA: -0.19 z-score
GACGATATCAGTCTCGATACGTGCTAG: 2.09 z-score
CGTATCTTCATTGTCATGTAGTGCTAG: 0.686 z-score
ACCTGTATATCTTCAGCGGGGTGCTAG: -0.0339 z-score
TTAGGTCTCGGTATAGGTTAGTGCTAG: 0.621 z-score
TTAGATCTCAGACCGGATTAGTGCTAG: -0.0172 z-score
TCAGTTCTCAGCTTGGGACTGTGCTAG: -0.336 z-score

Sample 2 — method: aptamer microarray, sandwich; molecule type: DNA with 2'F-ANA; matrix: in vitro; concentration: 200 nM; with: Cy3 exosite-II aptamer, 400 nM; direction: higher = stronger binding; endpoint: mean fluorescence intensity; strand: GGTTGGTGTGGTTGG
Target: Prothrombin, mature alpha-thrombin (F2, Homo sapiens, UniProt P00734)
Setting: whole 15-mer aptamer, many near background
2'F-ANA at 1 2 3 4 5 8 11 13 14 15: 47.7 a.u.
2'F-ANA at 3 4 5 7 9 13: 68.6 a.u.
2'F-ANA at 6 7 9 13 14: 158 a.u.
2'F-ANA at 5 6 7 8 9 10 13 15: 46.4 a.u.
2'F-ANA at 3 6 7 9 12 14: 550 a.u.
2'F-ANA at 1 3 5 7 8 11 13 15: 56.4 a.u.

Sample 3 — method: protein binding microarray; molecule type: double-stranded DNA, one strand shown; matrix: in vitro; concentration: not given; relative to: not given; direction: higher = stronger binding; endpoint: E-score
Target: Histone acetyltransferase KAT6A, winged helix 2, GST fusion (KAT6A, Homo sapiens, UniProt Q92794, residues 85-181)
Setting: 8-mer, flanks averaged, mean of 2 arrays, mostly near background
Construct (chain): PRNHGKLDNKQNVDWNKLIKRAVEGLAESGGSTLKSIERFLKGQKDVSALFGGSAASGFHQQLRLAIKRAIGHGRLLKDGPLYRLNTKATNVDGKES
AGACCACA: 0.0957
CAATGTAG: -0.0119
GGGTATCA: 0.052
ACCCAAAG: -0.068
ATGAGCCG: -0.0932
AAGCTACA: 0.00538

Mixed results
PhoQ, residues 284 288 289 292 302 303 SVHLDV  fold induction (PhoP, residues 12 14 15 18 19 LHSVW (Escherichia coli, UniProt P23836); Sort-seq, item: YFP reporter; E. coli; PhoQ-PhoP variant library, with: 10 µM Mg2+; relative to: high Mg2+ state, higher = stronger signaling): 3.09

Excerpt of the above (sample 1):
TTAGGTCTCGGTATAGGTTAGTGCTAG: 0.621 z-score
TTAGATCTCAGACCGGATTAGTGCTAG: -0.0172 z-score
TCAGTTCTCAGCTTGGGACTGTGCTAG: -0.336 z-score
